Experimental data from different studies.
A part holds a random share of what one study measured.

Sample 1
Target: Sal-like protein 4, full length isoform A (SALL4, Homo sapiens, UniProt Q9UJQ4, residues 1-1053)
UniProt Q9UJQ4, sequence (whole entry, looked up): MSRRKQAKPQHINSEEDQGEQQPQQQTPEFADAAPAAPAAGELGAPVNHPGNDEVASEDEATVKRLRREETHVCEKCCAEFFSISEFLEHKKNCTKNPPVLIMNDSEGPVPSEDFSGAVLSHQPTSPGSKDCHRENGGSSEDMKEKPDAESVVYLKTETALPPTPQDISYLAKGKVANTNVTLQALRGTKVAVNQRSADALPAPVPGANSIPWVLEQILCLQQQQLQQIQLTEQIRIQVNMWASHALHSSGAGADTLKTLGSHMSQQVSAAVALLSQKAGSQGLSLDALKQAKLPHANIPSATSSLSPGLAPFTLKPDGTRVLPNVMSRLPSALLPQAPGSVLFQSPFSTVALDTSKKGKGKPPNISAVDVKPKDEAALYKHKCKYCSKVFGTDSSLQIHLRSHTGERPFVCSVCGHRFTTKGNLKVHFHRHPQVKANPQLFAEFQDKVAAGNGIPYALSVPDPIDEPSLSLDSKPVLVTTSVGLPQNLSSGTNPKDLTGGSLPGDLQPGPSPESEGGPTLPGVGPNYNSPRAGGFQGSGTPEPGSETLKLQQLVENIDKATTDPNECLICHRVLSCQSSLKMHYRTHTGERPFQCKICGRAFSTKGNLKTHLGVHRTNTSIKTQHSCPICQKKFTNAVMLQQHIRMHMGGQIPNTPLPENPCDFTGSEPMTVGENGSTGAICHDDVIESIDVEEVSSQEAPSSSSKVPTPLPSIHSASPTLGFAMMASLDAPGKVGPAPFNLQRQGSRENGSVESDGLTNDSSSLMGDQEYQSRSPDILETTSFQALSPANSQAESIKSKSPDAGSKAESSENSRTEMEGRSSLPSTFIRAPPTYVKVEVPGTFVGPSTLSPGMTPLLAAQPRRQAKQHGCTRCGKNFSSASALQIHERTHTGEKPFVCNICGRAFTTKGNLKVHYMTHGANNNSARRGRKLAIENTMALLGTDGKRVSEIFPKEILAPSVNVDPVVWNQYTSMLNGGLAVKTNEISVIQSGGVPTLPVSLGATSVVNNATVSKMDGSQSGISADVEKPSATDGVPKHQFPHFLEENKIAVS
Method: universal PBM
Form: double-stranded DNA, one strand shown
Medium: in vitro
Concentration: 600 nM
Setting: 8-mer, flanks averaged, mean of replicates
Direction: higher = stronger binding
| Oligonucleotide | E-score |
| --- | --- |
| AAACACCC | -0.134 |
| GAGGTAGC | -0.286 |
| AGGAGAGC | -0.297 |

Sample 2
Target: Histone acetyltransferase KAT6A, both winged helices, GST fusion (KAT6A, Homo sapiens, UniProt Q92794, residues 1-181)
Method: protein binding microarray
Form: double-stranded DNA, one strand shown
Medium: in vitro
Concentration: not given
Setting: 8-mer, flanks averaged, mean of 2 arrays, mostly near background
Reference: not given
Direction: higher = stronger binding
Target sequence (chain): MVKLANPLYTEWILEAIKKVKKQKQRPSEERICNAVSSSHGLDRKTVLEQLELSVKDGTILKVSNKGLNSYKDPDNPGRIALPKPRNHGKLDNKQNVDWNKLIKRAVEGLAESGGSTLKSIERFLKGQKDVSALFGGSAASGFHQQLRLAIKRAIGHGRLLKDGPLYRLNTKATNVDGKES
| Oligonucleotide | E-score |
| --- | --- |
| CAATCTCA | -0.0546 |
| GGAGAGAC | -0.0894 |
| ACCCCGCA | 0.207 |
| CGTCGTCA | 0.0423 |

Mixed results
| Molecule | target | test | system | setting | scale | measurement | value |
| --- | --- | --- | --- | --- | --- | --- | --- |
| GCCTAGCACTGGGCTCTAGGTTCTCTGAAGGTGCTAGTCTTGATTCGCTTGACGCTGCTG | Interferon regulatory factor 5, full length, phosphomimetic (IRF5, Homo sapiens, UniProt Q13568-2, residues 1-514, K96S/S451D/S453D/S456D/S462D) | protein-binding microarray | double-stranded DNA, one strand shown, in vitro | 250 nM, 60-bp whole probe, together with: salmon DNA 0.4 mg/ml | reference: random background probes, higher = stronger binding | log fluorescence | -0.405 z-score |
| PhoQ, residues 284 288 289 292 302 303 TLMATV | PhoP, residues 12 14 15 18 19 SPWRL (Escherichia coli, UniProt P23836) | Sort-seq, item: YFP reporter | E. coli | PhoQ-PhoP variant library, together with: 10 µM Mg2+ | reference: high Mg2+ state, higher = stronger signaling | fold induction | 14.8 |
